Results of several laboratories.
Lines come from different studies, so protocols differ. “And” joins repeats or separate records; there may be more than shown. ± marks the error that the study gave.
Chain of UniProt Q9Y2J8 (whole entry, looked up): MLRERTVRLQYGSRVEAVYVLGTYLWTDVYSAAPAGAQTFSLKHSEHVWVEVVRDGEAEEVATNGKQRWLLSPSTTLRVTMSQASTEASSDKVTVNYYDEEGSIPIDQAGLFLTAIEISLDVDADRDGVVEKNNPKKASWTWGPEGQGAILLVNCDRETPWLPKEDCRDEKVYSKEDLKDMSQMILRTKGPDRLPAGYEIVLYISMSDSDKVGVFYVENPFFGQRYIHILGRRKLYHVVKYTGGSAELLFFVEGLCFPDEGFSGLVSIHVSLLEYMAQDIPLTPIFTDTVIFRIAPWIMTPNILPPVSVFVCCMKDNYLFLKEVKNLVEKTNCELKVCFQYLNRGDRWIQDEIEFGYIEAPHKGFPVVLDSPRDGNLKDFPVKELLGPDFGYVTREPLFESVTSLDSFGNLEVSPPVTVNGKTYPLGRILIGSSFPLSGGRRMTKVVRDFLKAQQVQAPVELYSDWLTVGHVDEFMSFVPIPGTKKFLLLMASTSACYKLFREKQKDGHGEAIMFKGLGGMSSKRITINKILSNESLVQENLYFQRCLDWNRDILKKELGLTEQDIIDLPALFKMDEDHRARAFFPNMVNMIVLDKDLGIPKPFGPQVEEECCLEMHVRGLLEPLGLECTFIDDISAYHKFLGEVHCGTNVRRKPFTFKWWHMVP
Chain of UniProt O14965 (whole entry, looked up): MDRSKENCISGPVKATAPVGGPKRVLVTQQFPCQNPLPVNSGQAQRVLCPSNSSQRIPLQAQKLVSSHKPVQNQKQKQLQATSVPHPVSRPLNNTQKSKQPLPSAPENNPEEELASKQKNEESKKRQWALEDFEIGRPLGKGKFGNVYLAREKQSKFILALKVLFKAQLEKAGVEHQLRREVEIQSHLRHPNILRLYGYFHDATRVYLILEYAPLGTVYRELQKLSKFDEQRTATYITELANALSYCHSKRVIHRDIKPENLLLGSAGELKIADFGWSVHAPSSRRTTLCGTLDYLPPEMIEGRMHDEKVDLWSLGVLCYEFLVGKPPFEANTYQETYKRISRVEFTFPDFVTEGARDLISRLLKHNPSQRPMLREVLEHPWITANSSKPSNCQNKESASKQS
Chain of UniProt P21554 (whole entry, unmodified, looked up): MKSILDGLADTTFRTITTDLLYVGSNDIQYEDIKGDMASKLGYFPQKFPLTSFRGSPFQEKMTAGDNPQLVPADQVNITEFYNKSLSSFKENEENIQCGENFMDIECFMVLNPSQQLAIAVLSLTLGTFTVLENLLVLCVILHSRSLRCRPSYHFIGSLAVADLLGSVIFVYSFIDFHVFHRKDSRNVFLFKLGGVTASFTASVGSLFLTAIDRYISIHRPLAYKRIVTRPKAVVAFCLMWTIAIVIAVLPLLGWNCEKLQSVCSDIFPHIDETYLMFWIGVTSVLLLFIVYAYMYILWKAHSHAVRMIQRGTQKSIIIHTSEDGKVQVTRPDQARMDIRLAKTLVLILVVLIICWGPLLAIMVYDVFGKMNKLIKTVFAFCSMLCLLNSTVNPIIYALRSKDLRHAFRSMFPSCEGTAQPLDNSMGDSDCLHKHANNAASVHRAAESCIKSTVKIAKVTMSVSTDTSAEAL
Chain of UniProt Q15059 (whole entry, unmodified, looked up): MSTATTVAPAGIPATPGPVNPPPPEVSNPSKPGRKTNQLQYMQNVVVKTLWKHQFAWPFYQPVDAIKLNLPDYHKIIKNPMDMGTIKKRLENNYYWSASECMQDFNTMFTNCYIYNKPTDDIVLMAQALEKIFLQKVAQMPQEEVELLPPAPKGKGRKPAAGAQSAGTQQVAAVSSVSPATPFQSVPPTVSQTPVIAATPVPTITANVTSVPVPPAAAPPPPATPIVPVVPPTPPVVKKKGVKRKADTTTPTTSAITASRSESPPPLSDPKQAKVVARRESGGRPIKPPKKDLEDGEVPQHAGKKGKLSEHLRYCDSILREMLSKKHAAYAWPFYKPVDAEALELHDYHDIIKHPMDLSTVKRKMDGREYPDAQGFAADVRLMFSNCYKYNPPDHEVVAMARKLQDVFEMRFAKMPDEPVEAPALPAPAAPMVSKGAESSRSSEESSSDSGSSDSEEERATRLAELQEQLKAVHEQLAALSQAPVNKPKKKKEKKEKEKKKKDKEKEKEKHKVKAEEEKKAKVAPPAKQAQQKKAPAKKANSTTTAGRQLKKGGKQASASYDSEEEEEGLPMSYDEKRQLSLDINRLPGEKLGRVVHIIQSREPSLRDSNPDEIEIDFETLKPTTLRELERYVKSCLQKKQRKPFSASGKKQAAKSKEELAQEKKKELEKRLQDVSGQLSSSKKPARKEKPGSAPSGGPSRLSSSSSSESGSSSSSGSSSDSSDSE
Chain of UniProt Q15910 (whole entry, looked up): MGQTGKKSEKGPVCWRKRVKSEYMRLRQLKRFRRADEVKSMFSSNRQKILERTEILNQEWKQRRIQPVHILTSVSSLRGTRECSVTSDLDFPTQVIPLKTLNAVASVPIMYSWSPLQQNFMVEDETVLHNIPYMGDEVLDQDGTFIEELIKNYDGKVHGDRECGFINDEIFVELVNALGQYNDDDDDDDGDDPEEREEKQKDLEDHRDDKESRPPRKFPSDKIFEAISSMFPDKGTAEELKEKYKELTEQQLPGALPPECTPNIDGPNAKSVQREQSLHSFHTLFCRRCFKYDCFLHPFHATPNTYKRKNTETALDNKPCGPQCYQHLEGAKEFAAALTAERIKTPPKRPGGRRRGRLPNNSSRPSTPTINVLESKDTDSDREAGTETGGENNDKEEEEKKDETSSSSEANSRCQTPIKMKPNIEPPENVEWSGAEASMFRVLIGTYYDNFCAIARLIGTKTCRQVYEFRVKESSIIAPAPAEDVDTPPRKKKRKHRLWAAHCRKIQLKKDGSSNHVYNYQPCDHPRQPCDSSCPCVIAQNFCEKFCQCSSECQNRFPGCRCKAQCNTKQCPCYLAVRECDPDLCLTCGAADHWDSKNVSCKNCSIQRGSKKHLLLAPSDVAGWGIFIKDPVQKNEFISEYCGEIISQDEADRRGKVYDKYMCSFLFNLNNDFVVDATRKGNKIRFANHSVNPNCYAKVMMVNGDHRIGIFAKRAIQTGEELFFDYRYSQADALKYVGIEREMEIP
Chain of UniProt Q16584 (whole entry, looked up): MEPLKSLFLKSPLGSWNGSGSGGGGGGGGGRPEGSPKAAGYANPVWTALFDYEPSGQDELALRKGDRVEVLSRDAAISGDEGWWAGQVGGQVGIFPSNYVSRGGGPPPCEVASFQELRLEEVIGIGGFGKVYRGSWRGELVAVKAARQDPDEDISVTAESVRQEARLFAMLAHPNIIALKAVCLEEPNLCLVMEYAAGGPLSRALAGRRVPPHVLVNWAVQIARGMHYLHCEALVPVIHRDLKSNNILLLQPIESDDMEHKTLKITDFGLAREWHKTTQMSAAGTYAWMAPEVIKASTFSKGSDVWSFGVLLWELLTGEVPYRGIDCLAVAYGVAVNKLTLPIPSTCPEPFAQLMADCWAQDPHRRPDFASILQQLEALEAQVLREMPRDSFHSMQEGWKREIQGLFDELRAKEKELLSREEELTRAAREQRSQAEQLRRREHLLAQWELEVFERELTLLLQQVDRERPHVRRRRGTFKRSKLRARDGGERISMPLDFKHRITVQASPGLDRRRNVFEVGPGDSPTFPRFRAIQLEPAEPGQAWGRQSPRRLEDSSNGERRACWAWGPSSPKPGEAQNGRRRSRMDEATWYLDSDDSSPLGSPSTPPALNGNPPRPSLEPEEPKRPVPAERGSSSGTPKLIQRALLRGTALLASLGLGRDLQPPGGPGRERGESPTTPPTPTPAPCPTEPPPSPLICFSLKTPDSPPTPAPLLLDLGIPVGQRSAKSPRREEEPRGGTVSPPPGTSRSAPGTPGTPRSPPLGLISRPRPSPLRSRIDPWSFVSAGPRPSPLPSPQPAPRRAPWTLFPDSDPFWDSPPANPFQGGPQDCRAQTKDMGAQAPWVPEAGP
Chain of UniProt O75582 (whole entry, looked up): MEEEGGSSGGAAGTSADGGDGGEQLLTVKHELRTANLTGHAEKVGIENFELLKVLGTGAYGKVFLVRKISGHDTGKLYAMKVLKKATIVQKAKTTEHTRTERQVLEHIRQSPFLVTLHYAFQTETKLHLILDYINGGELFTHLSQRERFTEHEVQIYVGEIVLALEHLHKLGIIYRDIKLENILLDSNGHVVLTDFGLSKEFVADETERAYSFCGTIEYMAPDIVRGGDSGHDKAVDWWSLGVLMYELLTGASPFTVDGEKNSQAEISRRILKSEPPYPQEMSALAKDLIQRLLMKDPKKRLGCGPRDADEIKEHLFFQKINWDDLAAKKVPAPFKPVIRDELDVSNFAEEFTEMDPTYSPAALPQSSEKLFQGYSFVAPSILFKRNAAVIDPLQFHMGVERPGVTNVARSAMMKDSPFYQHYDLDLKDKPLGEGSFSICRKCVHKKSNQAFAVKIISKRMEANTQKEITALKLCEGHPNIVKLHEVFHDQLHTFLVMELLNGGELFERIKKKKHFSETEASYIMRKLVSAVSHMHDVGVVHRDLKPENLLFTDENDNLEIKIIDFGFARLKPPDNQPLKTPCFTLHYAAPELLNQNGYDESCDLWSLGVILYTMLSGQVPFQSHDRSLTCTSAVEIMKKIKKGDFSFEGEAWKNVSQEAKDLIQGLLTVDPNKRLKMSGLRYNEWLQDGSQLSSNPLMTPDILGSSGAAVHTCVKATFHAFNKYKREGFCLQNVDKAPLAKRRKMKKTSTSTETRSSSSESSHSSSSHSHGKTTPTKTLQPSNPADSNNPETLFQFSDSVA

CN(C)[C@H]1C[C@@]23CC[C@@]4(O2)C(=CC[C@]2(C)[C@@H](c5ccc6ccncc6c5)CC[C@H]24)C=C3[C@@H](O)[C@@H]1O  inhibition (Mitogen-activated protein kinase kinase kinase 11 (MAP3K11, Homo sapiens, UniProt Q16584); ATP probe labelling, inhibitor, KiNativ profiling; 1 µM): -12.8%
COc1ccccc1C(C[N+](=O)[O-])c1c(-c2ccccc2)[nH]c2ccccc12 (stereo not drawn)  Emax (Cannabinoid receptor 1 (CNR1, Homo sapiens, UniProt P21554, I245L); Gαi1-γ2 dissociation, BRET): 85.3 ± 6.21%
O=C1NC(=O)c2c1c1cc(F)c[n+]3c1c1c2c2cc(O)ccc2[n]1[Ru-4]312([N]=C=S)[S+]3CC[S+]1CC[S+]2CC3 (stereo not drawn)  remaining activity (Ribosomal protein S6 kinase alpha-5 (RPS6KA5, Homo sapiens, UniProt O75582); enzyme activity; 100 nM, human enzyme, with: 10 µM ATP; baseline: untreated): 17%
Cc1ccc2c(C(C[N+](=O)[O-])c3cccs3)c(-c3ccccc3)[nH]c2c1 (stereo not drawn)  Emax (Cannabinoid receptor 1 (CNR1, Homo sapiens, UniProt P21554, P394A); Gαi1-γ2 dissociation, BRET): 58.6 ± 3.07%
CSc1cc(C)[nH]c(=O)c1CNC(=O)c1c(C)n([C@H](C)C2CCN(CC(F)(F)F)CC2)c2ccccc12  residence time (Histone-lysine N-methyltransferase EZH2 (EZH2, Homo sapiens, UniProt Q15910); enzyme activity): 564 min
O=C1NC2(CC2)COc2ncc(F)cc2[C@H]2COCCN2c2ccn3ncc1c3n2  organ weight (Sprague-Dawley rat, female, spleen; oral, 10 mg/kg/day, 4 weeks): 1.14 ± 0.224 g
CC(C)CC(O)(CC(C)C)c1cn(C(=O)N2CCCC2)nn1  SILAC ratio (Acyl-coenzyme A thioesterase 2, mitochondrial (Acot2, Mus musculus, UniProt Q9QYR9); probe labelling, inhibitor, competitive ABPP-SILAC, refers to: Acot2; mouse T cells; concentration not given, 4 h, in situ, protein level; baseline: treated over DMSO, lower = more inhibition): 1.51
N[C@H](C(=O)N1CCCC1)C1CCN(c2nccc3c(-c4ncc(Cl)cc4Cl)cccc23)CC1  melting temperature (Protein-arginine deiminase type-2 (PADI2, Homo sapiens, UniProt Q9Y2J8); thermal shift; 0.3009 µM): 61.8 °C and 61.1 °C
CS(C)(=O)=Nc1ccc(-c2ccc(-c3nc4cc(O[C@@H]5CO[C@H]6[C@@H]5OC[C@H]6O)[nH]c4cc3F)cc2)cc1  inhibition (5-hydroxytryptamine receptor 6 (HTR6, Homo sapiens, UniProt P50406); calcium signal, antagonist; 10 µM): 9%
CC(C)[C@H]1NC(=O)C[C@H]2/C=C/CCSSC[C@@H](NC1=O)C(=O)N[C@H](Cc1cccc3ccccc13)C(=O)NCC(=O)O2  inhibition (Aurora kinase A, with TPX2 (AURKA, Homo sapiens, UniProt O14965); 10 µM): -1.2%
Cc1sc2c(c1C)C(c1ccc(Cl)cc1)=N[C@@H](CC(=O)OC(C)(C)C)c1nnc(C)n1-2  observed ΔH (Bromodomain-containing protein 3, BD2 (BRD3, Homo sapiens, UniProt Q15059); isothermal titration calorimetry; 15 °C, reverse titration): -4.93 ± 0.017 kcal/mol
Nc1ccc(/C=C/C(=O)N2CCc3c(oc4c(-c5ccc(F)cc5)cc(-c5ccc(C(=O)N6CCC(F)(F)CC6)cn5)cc34)C2)cn1  remaining binding (Aurora kinase A (AURKA, Homo sapiens, UniProt O14965); binding, competition with immobilised ligand; 1 µM): 91%

A few entries again:
CC(C)[C@H]1NC(=O)C[C@H]2/C=C/CCSSC[C@@H](NC1=O)C(=O)N[C@H](Cc1cccc3ccccc13)C(=O)NCC(=O)O2  inhibition (Aurora kinase A, with TPX2 (AURKA, Homo sapiens, UniProt O14965); 10 µM): -1.2%
